Measured values from different studies.
Every numbered part comes from another study and shows a few of its results, in no order. Changes are numbered by the printed parent chain.

Study 1 — technique: aptamer microarray, sandwich; molecule type: DNA with 2'F-ANA; matrix: in vitro; tested at: 200 nM; added: Cy3 exosite-II aptamer, 400 nM; reading: higher = stronger binding; quantity: mean fluorescence intensity; sequence: GGTTGGTGTGGTTGG
Target: Prothrombin, mature alpha-thrombin (F2, Homo sapiens, UniProt P00734)
Setting: whole 15-mer aptamer, many near background
Modification = 2'F-ANA at 3 4 5 6 8 9 10 11 12 14; value = 86.2 a.u.
Modification = 2'F-ANA at 3 4 9 10 11 12; value = 332 a.u.
Modification = 2'F-ANA at 5 6 7 8 10 11 14; value = 46.7 a.u.
Modification = 2'F-ANA at 1 4 9 12 13 14; value = 60.7 a.u.
Modification = 2'F-ANA at 2 4 5 7 8 9 10 11 13; value = 50.6 a.u.
Modification = 2'F-ANA at 1 2 3 7 9 12 14; value = 82.6 a.u.
Modification = 2'F-ANA at 1 3 4 5 8; value = 59.7 a.u.
Modification = 2'F-ANA at 1 3 4 5 9 10 11 13 15; value = 56.9 a.u.
Modification = 2'F-ANA at 2 3 5 6 7 8 11 12; value = 194 a.u.
Modification = 2'F-ANA at 1 5 6 7 9 11 12 13 14; value = 62 a.u.
Modification = 2'F-ANA at 5 6 8 12 13 14; value = 75.1 a.u.
Modification = 2'F-ANA at 2 3 7 8 10 11 13 14 15; value = 298 a.u.
Modification = 2'F-ANA at 2 4 8 11 12 13 14; value = 130 a.u.
Modification = 2'F-ANA at 1 5 6 7 8 10 12 15; value = 64.6 a.u.
Modification = 2'F-ANA at 4 5 6 7 9 11 15; value = 55.8 a.u.
Modification = 2'F-ANA at 3 4 5 7 9 10 11; value = 56.2 a.u.
Modification = 2'F-ANA at 3 6 8 9 11 12 13 15; value = 879 a.u.
Modification = 2'F-ANA at 1 5 6 9 13 15; value = 48.2 a.u.
Modification = 2'F-ANA at 1 3 4 6 7 10; value = 61.6 a.u.
Modification = 2'F-ANA at 3 5 6 8 9 11 12; value = 238 a.u.

Study 2 — target: CEP164, C-terminal peptide (human); technique: DHFR complementation, deep sequencing; matrix: yeast; reference: wild type; reading: higher = weaker binding; quantity: binding free energy change
Setting: single substitutions, model-inferred values
Starting sequence: PDZK1, PDZ domain 2 (human); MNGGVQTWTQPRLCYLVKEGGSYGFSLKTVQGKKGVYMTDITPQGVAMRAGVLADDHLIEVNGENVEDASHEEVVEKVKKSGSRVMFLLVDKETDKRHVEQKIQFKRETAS; partner HNRVKVYRF
Change = G20H; value = 0.189 kcal/mol
Change = N65C; value = 0.275 kcal/mol
Change = Y37N; value = 1.02 kcal/mol
Change = L13K; value = -0.0812 kcal/mol
Change = V17S; value = 0.128 kcal/mol
Change = G24C; value = 1.18 kcal/mol
Change = V46Q; value = 0.627 kcal/mol
Change = Q44S; value = 0.0228 kcal/mol
Change = E100C; value = -0.0826 kcal/mol
Change = S81W; value = 0.825 kcal/mol
Change = M86G; value = -0.0928 kcal/mol
Change = V46N; value = 0.413 kcal/mol
Change = P11T; value = 0.149 kcal/mol
Change = G32K; value = 0.543 kcal/mol
Change = K102C; value = -0.0486 kcal/mol
Change = E67Y; value = 0.201 kcal/mol
Change = K77Y; value = 0.153 kcal/mol
Change = P11M; value = 0.361 kcal/mol
Change = V17R; value = -0.148 kcal/mol
Change = N65K; value = 0.417 kcal/mol

Study 3 — technique: protein-binding microarray; molecule type: double-stranded DNA, one strand shown; matrix: in vitro; tested at: 250 nM; setting: 60-bp whole probe; added: salmon DNA 0.4 mg/ml; reference: random background probes; reading: higher = stronger binding; quantity: log fluorescence; all sequences stand within: GCCTAGCAC … GTCTTGATTCGCTTGACGCTGCTG
Target: Interferon regulatory factor 7, full length, phosphomimetic (IRF7, Homo sapiens, UniProt Q92985, residues 1-503, S101K/S471D/S472D/S475D/S476D/S477D/S483D/S484D/S487D)
UniProt Q92985, sequence (whole entry, unmodified, looked up): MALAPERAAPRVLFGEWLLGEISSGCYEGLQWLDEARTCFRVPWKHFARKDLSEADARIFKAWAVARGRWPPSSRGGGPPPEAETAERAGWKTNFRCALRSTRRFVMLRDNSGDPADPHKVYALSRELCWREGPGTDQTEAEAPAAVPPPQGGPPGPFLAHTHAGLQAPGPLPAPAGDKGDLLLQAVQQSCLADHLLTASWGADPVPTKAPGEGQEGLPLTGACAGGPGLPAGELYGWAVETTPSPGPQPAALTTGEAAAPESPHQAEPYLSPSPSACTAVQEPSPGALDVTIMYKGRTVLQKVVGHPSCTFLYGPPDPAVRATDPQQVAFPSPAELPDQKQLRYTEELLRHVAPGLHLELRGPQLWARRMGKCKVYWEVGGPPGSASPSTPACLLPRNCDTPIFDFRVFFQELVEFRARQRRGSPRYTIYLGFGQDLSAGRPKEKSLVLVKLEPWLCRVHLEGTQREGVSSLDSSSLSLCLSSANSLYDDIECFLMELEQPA
Sequence = GACGGTTTCGGGTATTGGGACGTGCTA; value = 6.74 z-score
Sequence = TTAGGTTTCGGGTATTGGTTAGTGCTA; value = 6.73 z-score
Sequence = GACAGTTTCCTTCTCCTGACGTGCTAG; value = 2.69 z-score
Sequence = GCATCTCGGAGATCTCGAAGCGTGCTA; value = 0.614 z-score
Sequence = TCACTTTTATTTTCAGTACTGTGCTAG; value = 1.3 z-score
Sequence = TCATATATATTGTTAGTACTGTGCTAG; value = 0.512 z-score
Sequence = TTTTGCTTTCATTTATTTACGTGCTAG; value = 1.39 z-score
Sequence = TTAGGACTGCTACTGTTTTAGTGCTAG; value = -0.00965 z-score
Sequence = TACTCTCCAGGGTTTCTCTTTGTGCTA; value = 2.91 z-score
Sequence = TATGTTCCCTATATAAGGCGGTGCTAG; value = 2.42 z-score
Sequence = GACGATATCAGTAGCGAGACGTGCTAG; value = -0.196 z-score
Sequence = TTAGGACTGGGTTATCGGTTAGTGCTA; value = 0.251 z-score
Sequence = TTAGGTTTGCTTATCCTTTAGTGCTAG; value = 0.402 z-score
Sequence = GACGATTTCGGGTATCGAAACGTGCTA; value = 1.39 z-score
Sequence = GACGGATTCGGGTATCGGGACGTGCTA; value = 1.09 z-score
Sequence = CTTTTTTTTTTTTTTTTTTGGTGCTAG; value = 1.12 z-score
Sequence = TACGGTATCGGGACTGGGGACGTGCTA; value = -0.127 z-score
Sequence = GACGCTCTCCTTATCCTGACGTGCTAG; value = 0.402 z-score
Sequence = TCAGATTTTTTTTCCTAACTGTGCTAG; value = 0.843 z-score

Study 4 — target: CCND1, cyclin fold, Cln2 fusion (human); technique: yeast growth competition, sequencing; matrix: yeast; setting: strong parent motif; reference: not given; reading: higher = stronger binding; quantity: normalised enrichment score
Starting sequence: RBL2 docking peptide (human); STTRRRLFVENDS
Change = STTRRRLFVEGDS [N11G]; value = 0.938
Change = SPTRRRLFVENDS [T2P]; value = 1.41
Change = STTQRRLFVENDS [R4Q]; value = 0.594
Change = STTRRRLFVEEDS [N11E]; value = 1.19
Change = STNRRRLFVENDS [T3N]; value = -0.308
Change = STTRRRLYVENDS [F8Y]; value = 0.173
Change = STTRRRLFVENDH [S13H]; value = 1.22
Change = STTRRRLFVNNDS [E10N]; value = 0.511
Change = STTRRRLFQENDS [V9Q]; value = 0.849
Change = NTTRRRLFVENDS [S1N]; value = 0.947
Change = STTIRRLFVENDS [R4I]; value = 2.3
Change = STTRRRLFVENSS [D12S]; value = 0.673
Change = STCRRRLFVENDS [T3C]; value = 1.67
Change = STTRRRLFVEMDS [N11M]; value = 0.977
Change = STTRRRLDVENDS [F8D]; value = 0.107
Change = STTRRRLFVENDA [S13A]; value = 0.748

Some of these lines once more (study 4):
Change = SPTRRRLFVENDS [T2P]; value = 1.41
Change = STTRRRLFVENDH [S13H]; value = 1.22
Change = STTRRRLFVENDA [S13A]; value = 0.748
Change = STTQRRLFVENDS [R4Q]; value = 0.594
Change = STTRRRLDVENDS [F8D]; value = 0.107
Change = STTRRRLFVEEDS [N11E]; value = 1.19
Change = STTRRRLFVNNDS [E10N]; value = 0.511
Change = STTRRRLFVEMDS [N11M]; value = 0.977
Change = STNRRRLFVENDS [T3N]; value = -0.308
Change = NTTRRRLFVENDS [S1N]; value = 0.947
